Results pooled from the literature.
Numbers after ± are the reported error.

Compound | technique | matrix | tested at | pH | temperature | setting | logD
Cc1ccnc(C(=O)NC2CCCCC2)c1O | miniaturised shake-flask | 1-octanol/water |  |  |  |  | 3.3
Cc1ccc([C@H]2N[C@@H](c3ccc(C(C)(C)C)cc3)CO[C@@H]2C)cc1 | shake-flask, 1-octanol/buffer |  |  | pH 7.4 |  |  | > 4.7
COc1ccccc1NC(=O)CSc1nncn1C |  | octanol/buffer |  | pH 7.4 |  |  | 0.65
COc1ccc2nc(-c3cc(N(C)C)ccn3)c(N(C)c3ccc(F)cc3)n2c1 |  |  |  | pH 7.4 |  |  | 2.6
Cc1ccc(Oc2ccc(NC(=O)COc3ccccc3N3CCCC3=O)cc2)cc1 | shake-flask |  |  |  |  |  | 4.8
CN1C(C(=O)Nc2nnc(C(F)(F)F)s2)=C(O)c2ccccc2S1(=O)=O | miniaturised shake-flask | 1-octanol/water |  |  |  |  | 0.5
C=CC(=O)NC1CCN(c2ncc3ncnc(Nc4ccc(Oc5ccc6c(c5)ncn6C)c(C)c4)c3n2)CC1 |  |  |  | pH 7.4 |  |  | 4.7
CC(C(=O)O)n1nc(Cn2cc3cc(OCCF)c(Cl)cc3n2)c2ccccc2c1=O (racemic) |  |  |  | pH 7.4 | room temperature |  | 0.11 ± 0.02
Cc1ccc(S(=N)C2CC2)cc1 (stereo not drawn) |  |  |  | pH 7.4 |  |  | -0.3
COc1cc2[nH]c(C)c(-c3cccc4c3oc3ccccc34)c(=O)c2cc1Cl | chromatographic |  |  | pH 7.4 |  |  | 3.5
Cc1nonc1OCCNc1cc(N2CCOCC2)ccc1[N+](=O)[O-] |  | octanol/buffer |  | pH 7.4 |  |  | 2.87
C[C@@H](NC(=O)c1ccccc1CCC(=O)NNC(=O)/C=C/C(=O)OCc1ccc2ccccc2n1)c1cccc2ccccc12 |  |  |  |  |  |  | 5
COc1cc2[nH]c(C)c(-c3cc4ccccc4o3)c(=O)c2cc1Cl | chromatographic |  |  | pH 7.4 |  |  | 3.2
Clc1ccc([C@@H]2COC[C@H](c3cccc(Br)c3)N2)cc1 | shake-flask, 1-octanol/buffer |  |  | pH 7.4 |  |  | > 4.1
COc1ccc(NC(=O)CN2CCOCC2)c([N+](=O)[O-])c1 |  | octanol/buffer |  | pH 7.4 |  |  | 2.16
C[C@@H](NC(=O)c1ccccc1CCC(=O)NNC(=O)/C=C/C(=O)OCc1nccs1)c1cccc2ccccc12 |  |  |  |  |  |  | 3.1
CN1C(C(=O)Nc2ccccn2)=C(O)c2sccc2S1(=O)=O |  |  |  |  |  |  | -1.1
CC1(CNC(=O)[C@H](CN)NC(=O)c2ccc(-c3ccc(Br)cc3)cc2)NC(=O)NC1=O (stereo partly drawn) |  | octanol/buffer |  | pH 7.4 |  |  | 1.88
CCn1cc(C(=O)O)c(=O)c2ccc(C)nc21 | miniaturised shake-flask | 1-octanol/water |  |  |  |  | 0.1
Cc1ccc([C@@H]2COC[C@H](c3cc(Cl)cc(Cl)c3)N2)cc1 | shake-flask, 1-octanol/buffer |  |  | pH 7.4 |  |  | > 4.7
COc1ccccc1CNC(=O)c1cc(S(=O)(=O)N2CCc3ccccc3C2)c(C)n1C |  |  |  |  |  |  | 3.1
Cc1c([C@@H]2COC[C@H](c3ccc(-c4ccccc4)cc3)N2)cnn1-c1ccccc1 | shake-flask, 1-octanol/buffer |  |  | pH 7.4 |  |  | > 4.7
CC(C)CCNC(=O)c1ncccc1O | miniaturised shake-flask | 1-octanol/water |  |  |  |  | 3.2
O=C(O)c1cc(-c2ccc(-n3ccnn3)cc2)cc(-n2cc(-c3ccc(C(F)(F)F)cc3)nn2)c1 | HPLC retention |  |  | pH 7.4 |  | chromatographic logD | 0.038 ± 0.013
CN1CCN(c2cccc(-c3ccc4ncnc(Nc5ccc(Cl)c(Cl)c5)c4c3)c2)CC1 | shake flask | 1-octanol/phosphate buffer |  | pH 7.4 |  |  | > 4.1
CC1(C)OC[C@H](C2CCCCC2)N[C@@H]1c1ccc(-c2ccccc2)cc1 | shake-flask, 1-octanol/buffer |  |  | pH 7.4 |  |  | > 4.7

Compound | technique | matrix | tested at | pH | temperature | setting | logD
COc1cc2[nH]c(C)c(-c3ccc(C(C)C)cc3)c(=O)c2cc1Cl | chromatographic |  |  | pH 7.4 |  |  | 3.6
O=c1[nH]c(=S)n(Cc2ccc(F)cc2)c2nc[nH]c12 |  |  |  |  |  |  | 2.1
COc1cc2[nH]c(C)c(-c3ccc(N(C)C)cc3)c(=O)c2cc1Cl | chromatographic |  |  | pH 7.4 |  |  | 2.6
CCCN(C)Cc1cc(-c2[nH]c3cccc(F)c3c(=O)c2C)ccc1Cc1ccc(OC(F)(F)F)cc1 |  |  |  | pH 7.4 |  |  | 5.78
COc1cc2[nH]c(C)c(-c3ccc(COc4ccccc4)cc3)c(=O)c2cc1Cl | chromatographic |  |  | pH 7.4 |  |  | 3.7
COc1ccc2nc(COc3ccc(CC4SC(=O)NC4=O)cc3)n(C)c2c1 (stereo not drawn) |  | octanol/buffer | 67 µM | pH 7.4 |  |  | 1.16
COc1ccc(-c2c(C)[nH]c3cc(OC)c(Cl)cc3c2=O)cc1 | chromatographic |  |  | pH 7.4 |  |  | 2.4
CCOC(=O)N1C[C@@H](c2ccc(C(F)(F)F)cc2)N[C@@H](c2cnc(-c3ccccc3)nc2)C1 | shake-flask, 1-octanol/buffer |  |  | pH 7.4 |  |  | > 4.7
Cc1ccc2ccc(C(=O)O)c(O)c2n1 | miniaturised shake-flask | 1-octanol/water |  |  |  |  | -0.3
CC(C)(C)c1ccc([C@@H]2COC[C@H](c3ccc(Cl)cc3)N2)cc1 | shake-flask, 1-octanol/buffer |  |  | pH 7.4 |  |  | > 4.7
Cc1ncc2c(c1O)COC2c1ccc(Cl)cc1 (stereo not drawn) | miniaturised shake-flask | 1-octanol/water |  |  |  |  | 2.2
COc1cc2[nH]c(C)c(-c3ccc(C=O)cc3)c(=O)c2cc1Cl | chromatographic |  |  | pH 7.4 |  |  | 2.2
COc1ccc(NC(=O)CSc2nnnn2C)cc1 |  | octanol/buffer |  | pH 7.4 |  |  | 1.23
CC(C)N(c1ccc(Cl)c(F)c1)c1ccc(NC(=O)CN(C)c2ccccc2N2CCCC2=O)cn1 | shake-flask |  |  |  |  |  | 5
O=S(=O)(c1ccc(F)cc1)N1CCNCC1COc1ccc2c(c1)OCO2 (stereo not drawn) | experimental partition |  |  | pH 7.4 |  |  | 2.29 ± 0.02
C[C@@H]1CN(c2cccc(-c3ccc4ncnc(Nc5ncco5)c4c3)c2)C[C@H](C)O1 | shake flask | 1-octanol/phosphate buffer |  | pH 7.4 |  |  | > 3.6
Cn1c(COc2cccc3cccnc23)nnc1SCC(N)=O |  | octanol/buffer |  | pH 7.4 |  |  | 0.64
CC[N+]1(C)CCN(c2ccc(NC(=O)c3cccc(C)n3)cc2)CC1 |  |  |  | pH 7.4 |  |  | -0.3
COc1cc2[nH]c(C)c(-c3cccnc3)c(=O)c2cc1Cl | chromatographic |  |  | pH 7.4 |  |  | 4.1
COC(=O)/C=C/C(=O)NNC(=O)CCc1ccccc1C(=O)N[C@H](C)c1cccc(-c2cn[nH]c2)c1 |  |  |  |  |  |  | 1.5
Cn1ccc(-c2ccc(-c3cc(C(=O)O)cc4cc(-c5ccc(C(F)(F)F)cc5)ccc34)cc2)n1 | HPLC retention |  |  | pH 7.4 |  | chromatographic logD | 0.97 ± 0.01
CC(=O)c1cccc(NC(=O)CSc2nnc(-c3cc4ccccc4cc3O)n2C)c1 |  | octanol/buffer |  | pH 7.4 |  |  | 3.47
C[C@@H](NC(=O)c1ccccc1CCC(=O)NNC(=O)/C=C/C(=O)N(C)C)c1cccc2ccccc12 |  |  |  |  |  |  | 3
CCOC(=O)N1C[C@@H](c2ccc(Cl)cc2)N[C@@H](c2ccc(C(C)(C)C)cc2)C1 | shake-flask, 1-octanol/buffer |  |  | pH 7.4 |  |  | > 4.7
O=C(COc1ccc(C2CCC(=O)NC2=O)cc1)NCCCCCCN1CCc2c(c3ccccc3n2Cc2ccc(C(=O)NO)cc2)C1 (stereo not drawn) | HPLC-based method |  |  | pH 7.4 |  |  | 1.6

Some of these lines once more:
Compound | technique | matrix | tested at | pH | temperature | setting | logD
COc1ccc(NC(=O)CSc2nnnn2C)cc1 |  | octanol/buffer |  | pH 7.4 |  |  | 1.23
COc1cc2[nH]c(C)c(-c3cccnc3)c(=O)c2cc1Cl | chromatographic |  |  | pH 7.4 |  |  | 4.1
COc1cc2[nH]c(C)c(-c3ccc(COc4ccccc4)cc3)c(=O)c2cc1Cl | chromatographic |  |  | pH 7.4 |  |  | 3.7
Cc1ccc(Oc2ccc(NC(=O)COc3ccccc3N3CCCC3=O)cc2)cc1 | shake-flask |  |  |  |  |  | 4.8
C[C@@H](NC(=O)c1ccccc1CCC(=O)NNC(=O)/C=C/C(=O)OCc1ccc2ccccc2n1)c1cccc2ccccc12 |  |  |  |  |  |  | 5
COc1ccc2nc(COc3ccc(CC4SC(=O)NC4=O)cc3)n(C)c2c1 (stereo not drawn) |  | octanol/buffer | 67 µM | pH 7.4 |  |  | 1.16
